Results pooled from the literature.
Each numbered part is a random draw from the data of one study; scales do not carry over between parts. Changes are numbered by the printed parent chain.

Block 1
Target: Protein max, full length (MAX, Homo sapiens, UniProt P61244-2, residues 1-151)
Technique: protein-binding microarray
Form: double-stranded DNA, one strand shown
Medium: in vitro
Tested at: not given
Notes: k-mer, scored over probes, only values ≥0.25
Reading: higher = stronger binding
Endpoint: E-score
ATCGTGGG: 0.273
AGCATGCG: 0.443
ACCGCGTG: 0.481
TGAGCACA: 0.317
GCGTGCTA: 0.426
ATGCTCCA: 0.293
AACGTGTA: 0.381
GCATGGGA: 0.373
ACAGCACG: 0.354
CGGTAGCA: 0.32
CCGCACGA: 0.275
AATGTGCG: 0.346
ACATGGAT: 0.283
ACGCTTGA: 0.251

Block 2
Target: ABI1, truncated, D143A, DHFR fusion (Arabidopsis thaliana)
Technique: DHFR PCA, deep sequencing
Medium: yeast
Notes: methotrexate growth selection, single substitutions
Together with: (+)-ABA 710 µM
Reference: wild-type fitted maximum
Reading: higher = stronger binding
Endpoint: relative binding score
Starting sequence: PYL1, truncated, DHFR fusion (Arabidopsis thaliana); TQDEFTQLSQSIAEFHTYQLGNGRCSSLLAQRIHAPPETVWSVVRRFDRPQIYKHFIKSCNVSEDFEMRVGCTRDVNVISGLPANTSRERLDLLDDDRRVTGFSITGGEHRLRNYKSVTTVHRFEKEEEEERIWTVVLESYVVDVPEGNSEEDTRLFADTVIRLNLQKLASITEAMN; partner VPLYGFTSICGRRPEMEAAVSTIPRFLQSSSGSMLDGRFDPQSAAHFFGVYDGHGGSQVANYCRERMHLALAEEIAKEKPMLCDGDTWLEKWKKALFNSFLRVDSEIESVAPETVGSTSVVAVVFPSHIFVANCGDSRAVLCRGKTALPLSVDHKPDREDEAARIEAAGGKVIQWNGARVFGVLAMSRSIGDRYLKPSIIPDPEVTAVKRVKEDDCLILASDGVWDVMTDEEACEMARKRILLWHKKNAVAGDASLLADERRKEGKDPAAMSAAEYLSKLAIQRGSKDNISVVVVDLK
V70W: 69.7%
H110E: 22.7%
A84N: 41.9%
L20I: 102%
L20Y: 95.9%
E174A: 94.7%
T73C: 99.3%
R163F: 53.9%
K168C: 99.8%
F15E: 68.8%
P37N: 69.4%
I33S: 47.8%
S117G: 85.4%
T101D: -20%
T173M: 92.2%

Block 3
Target: CCNF, cyclin fold, Cln2 fusion (human)
Technique: yeast growth competition, sequencing
Medium: yeast
Notes: strong parent motif
Reference: not given
Reading: higher = stronger binding
Endpoint: normalised enrichment score
Starting sequence: CENPC docking peptide (human); VKTKKRLNFDDKV
VKTKARLNFDDKV [K5A]: 0.426
VKTKKRLNLDDKV [F9L]: 0.997
VKTKKRLNFDDAV [K12A]: 6.66
VKTKKRLNFADKV [D10A]: 1.54
VKTKKRLNFDAKV [D11A]: 5.07
AKTKKRLNFDDKV [V1A]: 4.78
VKTKKRLAFDDKV [N8A]: 3.55

Block 4
Target: RNA binding protein fox-1 homolog 2, RRM domain, GST-SBP tag (RBFOX2, Homo sapiens, UniProt O43251-10, residues 100-194)
Technique: RNA Bind-n-Seq
Form: RNA
Medium: in vitro
Tested at: 365 nM
Notes: natural RNA segment, single round, ends assumed
Reference: no-protein control
Reading: higher = stronger binding
Endpoint: RBNS enrichment (R)
Construct (chain): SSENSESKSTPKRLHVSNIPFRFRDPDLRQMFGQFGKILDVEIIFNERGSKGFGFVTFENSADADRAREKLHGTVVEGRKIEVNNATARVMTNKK
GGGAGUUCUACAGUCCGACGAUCAAAUAAAAAAAAAAAGGAAAAAAAAACCUUAUAGAAGUUAGCAUUAUGCUAAAAUCCCAGAUGUUGUAGGACUGUACUUCUGUAGAGUUUAGACUGAGCAUCGAUCCCGUUGGAAUUCUCGGGUGCCAA: 0.972
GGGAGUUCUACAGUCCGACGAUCACAAGAGCAGCCUGUGGCAUCUUUGCCUUGGGCUGCUCCUCAUGGUGGGUUCAGGGGACUCAGCCCUGAGGUGAAAGGGAGCUAUCAGGAACAGCUAUGGGAGCCCCAGGUGGAAUUCUCGGGUGCCAA: 0.414
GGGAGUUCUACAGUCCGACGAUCUUCCUGUGGCCAUGCUGACUUACACUAAGAUUCUACCCCAGAAAACAAUUCUUUAGCAGUGGACAGAACCCUUAAAUUCUAAAAAGCUACAAACAUCAAGCAAUUCAGGUUGGAAUUCUCGGGUGCCAA: 0.455
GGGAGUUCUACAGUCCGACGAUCCAACCUCCUGUGCAUUUAAUUAAAUAGGCCAAAUUUUUGCUGCUUAGGUCAUCUCAAGGCUGAUACUUGAGCUGUGUGCCCAGAGAUCAUGCAUUUAGAUUUAUAUUUUUUGGAAUUCUCGGGUGCCAA: 1.25
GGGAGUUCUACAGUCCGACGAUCCCGGUGAGCCUGGGGCUGUUGCUUAGGGUCUUCUGGGUGGACACGUGGAGAAAGAGAAGGCAAACGUUGGAACACUAGGAAAAGCUAGAAAUUCAGACAACACACAUGGAUGGAAUUCUCGGGUGCCAA: 0.381
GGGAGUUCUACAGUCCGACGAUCCACAGAUUGAACUGCUGAACUAGUUGGAGGUCUAGAUGAGGUGCUUUACGCAUCAGCUGCCUUAGACAGCUUCUAGAAAGGAGCGAGCGCUACUUCUUAAGUACUUAAGUUGGAAUUCUCGGGUGCCAA: 0.223
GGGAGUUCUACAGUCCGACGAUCUCUCAAGCAGCAGAAUCAGCCUACGCUCCCCAGCCUCAGUGCCCCUGCCCCACACAGGUCACGCUGGCAAGGCGAUGACCAGUUUCCGAAACGCUGGAUCCCCAAGGGUAUGGAAUUCUCGGGUGCCAA: 0.322
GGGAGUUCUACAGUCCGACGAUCCUUUUUUAAUACUCCGAAAAUUUCAUCAUCUAAGAAAAUGAUUCCAUACAAAUAACUCAGCACACAAGUGACCCAGGACAUAUGCCUGCCAAAGGGAUGUGUUAGAAGGCUGGAAUUCUCGGGUGCCAA: 1.26
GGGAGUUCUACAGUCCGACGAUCAGCGGGCCAGUCCGUGCUUCUCCAGCUUCCCCAUGAGGCCAGCCGGGCCACGGCCUCCAUCAUGCUGAAUGACGCCUUCCUUCUGCCCCACCCCAGAAAAUCACUGUGAAUGGAAUUCUCGGGUGCCAA: 0.329
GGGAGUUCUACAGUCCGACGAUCCACUCCUACUUUAUGCCACAUUUCAGCCACACAUCUGCAUUAACCCACCUGAAACAUCCCAGCAGGCCCCUUGCUGCCAUGCCUUAUGGUUCCCAAUCAGCCAUUACCAUUGGAAUUCUCGGGUGCCAA: 1.92
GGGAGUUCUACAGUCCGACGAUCGUGCUCCCCUCCAAGACCCCUUAGCACAAGGGGAGACCCGCAGGCGGGGCUGAGCCACCCCCACAACCCUACCUUCUUCAUCCCCUCUGUCCCGUCUGUGGCAGAGGUUUUGGAAUUCUCGGGUGCCAA: 0.368
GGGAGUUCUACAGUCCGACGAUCACUGUCUGUCUCUCUGGUUUUCUUUUGCUGCUUCUUCCCUUCUGGUUUCUGGUAGCAGGCCUCCAUUGAACUGUUGUAAAAUACAAGAAGUGUGGUCAGUAAGGAGAGUUUGGAAUUCUCGGGUGCCAA: 0.186

Block 5
Target: Sal-like protein 4, full length isoform B (SALL4, Homo sapiens, UniProt Q9UJQ4-2, residues 1-616)
Technique: universal PBM
Form: double-stranded DNA, one strand shown
Medium: in vitro
Tested at: not given
Notes: 8-mer, flanks averaged, mean of replicates
Reading: higher = stronger binding
Endpoint: E-score
TCGCCAGA: -0.11
GGCCATAC: -0.143
TCTTAGCA: -0.035
CTAGCTAC: -0.197
CACATGGG: -0.279
CCTTCAAC: -0.0708
GTCGCTGA: -0.00541
ATATTCCC: 0.274
GGTTTTTA: 0.158
CCTTCGCA: 0.00361
CATGTGGG: -0.17
ATACAACC: 0.0351
ATGTAGGG: 0.0479
GATGATAA: 0.238
GAGTTAAA: -0.0478
CCATCAAC: 0.13
AGCGAACC: -0.132
AGGGAATG: 0.0221
ACGGGTCA: -0.265
TGCAGCAA: 0.0327
ACCAACAG: -0.208
GATCGGGC: -0.252
CAACCGCA: -0.121
GCTTCAAC: -0.116
ACATGTCC: -0.014

Excerpt of the above (block 4):
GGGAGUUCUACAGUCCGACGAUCCCGGUGAGCCUGGGGCUGUUGCUUAGGGUCUUCUGGGUGGACACGUGGAGAAAGAGAAGGCAAACGUUGGAACACUAGGAAAAGCUAGAAAUUCAGACAACACACAUGGAUGGAAUUCUCGGGUGCCAA: 0.381
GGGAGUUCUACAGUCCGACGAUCCUUUUUUAAUACUCCGAAAAUUUCAUCAUCUAAGAAAAUGAUUCCAUACAAAUAACUCAGCACACAAGUGACCCAGGACAUAUGCCUGCCAAAGGGAUGUGUUAGAAGGCUGGAAUUCUCGGGUGCCAA: 1.26
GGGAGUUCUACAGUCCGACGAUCAAAUAAAAAAAAAAAGGAAAAAAAAACCUUAUAGAAGUUAGCAUUAUGCUAAAAUCCCAGAUGUUGUAGGACUGUACUUCUGUAGAGUUUAGACUGAGCAUCGAUCCCGUUGGAAUUCUCGGGUGCCAA: 0.972
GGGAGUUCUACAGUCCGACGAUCACAAGAGCAGCCUGUGGCAUCUUUGCCUUGGGCUGCUCCUCAUGGUGGGUUCAGGGGACUCAGCCCUGAGGUGAAAGGGAGCUAUCAGGAACAGCUAUGGGAGCCCCAGGUGGAAUUCUCGGGUGCCAA: 0.414
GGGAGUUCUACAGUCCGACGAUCCACUCCUACUUUAUGCCACAUUUCAGCCACACAUCUGCAUUAACCCACCUGAAACAUCCCAGCAGGCCCCUUGCUGCCAUGCCUUAUGGUUCCCAAUCAGCCAUUACCAUUGGAAUUCUCGGGUGCCAA: 1.92
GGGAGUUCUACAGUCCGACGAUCACUGUCUGUCUCUCUGGUUUUCUUUUGCUGCUUCUUCCCUUCUGGUUUCUGGUAGCAGGCCUCCAUUGAACUGUUGUAAAAUACAAGAAGUGUGGUCAGUAAGGAGAGUUUGGAAUUCUCGGGUGCCAA: 0.186
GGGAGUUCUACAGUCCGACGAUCGUGCUCCCCUCCAAGACCCCUUAGCACAAGGGGAGACCCGCAGGCGGGGCUGAGCCACCCCCACAACCCUACCUUCUUCAUCCCCUCUGUCCCGUCUGUGGCAGAGGUUUUGGAAUUCUCGGGUGCCAA: 0.368
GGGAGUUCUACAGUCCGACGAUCAGCGGGCCAGUCCGUGCUUCUCCAGCUUCCCCAUGAGGCCAGCCGGGCCACGGCCUCCAUCAUGCUGAAUGACGCCUUCCUUCUGCCCCACCCCAGAAAAUCACUGUGAAUGGAAUUCUCGGGUGCCAA: 0.329
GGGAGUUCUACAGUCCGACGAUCCACAGAUUGAACUGCUGAACUAGUUGGAGGUCUAGAUGAGGUGCUUUACGCAUCAGCUGCCUUAGACAGCUUCUAGAAAGGAGCGAGCGCUACUUCUUAAGUACUUAAGUUGGAAUUCUCGGGUGCCAA: 0.223
